Results gathered from unrelated publications.
Lines come from different studies, so protocols differ.
PRSS1: Serine protease 1 (PRSS1, Bos taurus, UniProt P00760)
UniProt P00760, sequence (whole entry, looked up): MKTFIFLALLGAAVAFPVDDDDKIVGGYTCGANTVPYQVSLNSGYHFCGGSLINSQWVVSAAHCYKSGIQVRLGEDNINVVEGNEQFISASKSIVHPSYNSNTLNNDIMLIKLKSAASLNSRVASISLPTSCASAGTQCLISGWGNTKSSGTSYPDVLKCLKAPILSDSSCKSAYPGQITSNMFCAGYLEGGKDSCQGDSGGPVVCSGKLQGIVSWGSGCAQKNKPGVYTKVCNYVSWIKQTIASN
PTGS2: Prostaglandin G/H synthase 2 (PTGS2, Ovis aries, UniProt P79208)
UniProt P79208, sequence (whole entry, looked up): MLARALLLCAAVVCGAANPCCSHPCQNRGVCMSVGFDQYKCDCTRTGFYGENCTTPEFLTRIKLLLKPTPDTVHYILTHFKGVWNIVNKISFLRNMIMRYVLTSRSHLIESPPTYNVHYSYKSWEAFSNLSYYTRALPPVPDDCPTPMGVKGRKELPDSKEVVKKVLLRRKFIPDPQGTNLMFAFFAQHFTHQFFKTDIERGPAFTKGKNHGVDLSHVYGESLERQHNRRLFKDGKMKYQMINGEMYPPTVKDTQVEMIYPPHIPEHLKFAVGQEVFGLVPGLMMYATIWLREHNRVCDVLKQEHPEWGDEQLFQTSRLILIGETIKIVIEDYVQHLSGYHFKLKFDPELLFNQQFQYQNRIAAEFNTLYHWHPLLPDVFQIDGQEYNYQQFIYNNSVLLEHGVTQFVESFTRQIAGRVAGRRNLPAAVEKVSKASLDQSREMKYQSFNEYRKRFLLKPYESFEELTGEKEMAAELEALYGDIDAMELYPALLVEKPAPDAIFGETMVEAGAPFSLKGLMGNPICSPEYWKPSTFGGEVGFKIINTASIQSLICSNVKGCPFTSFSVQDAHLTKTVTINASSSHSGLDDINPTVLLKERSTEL
ERN2 RNase domain: Serine/threonine-protein kinase/endoribonuclease IRE2, RNase domain (ERN2, Homo sapiens, UniProt Q76MJ5)
UniProt Q76MJ5, sequence (whole entry, looked up): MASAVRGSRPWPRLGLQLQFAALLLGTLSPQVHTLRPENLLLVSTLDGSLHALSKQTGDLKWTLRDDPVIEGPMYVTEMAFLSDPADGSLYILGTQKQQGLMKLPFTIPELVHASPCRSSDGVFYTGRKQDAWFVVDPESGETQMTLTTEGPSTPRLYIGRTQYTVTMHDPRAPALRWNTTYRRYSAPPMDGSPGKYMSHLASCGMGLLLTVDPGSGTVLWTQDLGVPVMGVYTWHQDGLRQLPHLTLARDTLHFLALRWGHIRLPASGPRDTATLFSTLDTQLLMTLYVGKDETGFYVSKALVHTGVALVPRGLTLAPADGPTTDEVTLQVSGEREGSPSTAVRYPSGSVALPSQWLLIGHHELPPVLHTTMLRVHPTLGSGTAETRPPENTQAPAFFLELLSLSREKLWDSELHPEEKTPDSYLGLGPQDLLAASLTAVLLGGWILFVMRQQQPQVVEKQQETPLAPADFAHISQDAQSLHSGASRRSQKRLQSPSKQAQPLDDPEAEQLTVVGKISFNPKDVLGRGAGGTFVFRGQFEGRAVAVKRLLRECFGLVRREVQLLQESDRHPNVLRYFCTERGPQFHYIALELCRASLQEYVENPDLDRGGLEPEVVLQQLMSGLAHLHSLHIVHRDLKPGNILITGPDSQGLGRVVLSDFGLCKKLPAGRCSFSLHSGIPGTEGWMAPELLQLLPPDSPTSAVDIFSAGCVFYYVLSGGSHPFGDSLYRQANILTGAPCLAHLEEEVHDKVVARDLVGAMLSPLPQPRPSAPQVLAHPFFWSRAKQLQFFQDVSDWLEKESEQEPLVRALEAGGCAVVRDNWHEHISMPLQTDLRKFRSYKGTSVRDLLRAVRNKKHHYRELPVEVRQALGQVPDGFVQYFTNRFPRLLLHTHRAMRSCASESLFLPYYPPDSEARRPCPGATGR
Dipeptidyl peptidase 8: Dipeptidyl peptidase 8 (Homo sapiens, UniProt Q6V1X1)
UniProt Q6V1X1, sequence (whole entry, looked up): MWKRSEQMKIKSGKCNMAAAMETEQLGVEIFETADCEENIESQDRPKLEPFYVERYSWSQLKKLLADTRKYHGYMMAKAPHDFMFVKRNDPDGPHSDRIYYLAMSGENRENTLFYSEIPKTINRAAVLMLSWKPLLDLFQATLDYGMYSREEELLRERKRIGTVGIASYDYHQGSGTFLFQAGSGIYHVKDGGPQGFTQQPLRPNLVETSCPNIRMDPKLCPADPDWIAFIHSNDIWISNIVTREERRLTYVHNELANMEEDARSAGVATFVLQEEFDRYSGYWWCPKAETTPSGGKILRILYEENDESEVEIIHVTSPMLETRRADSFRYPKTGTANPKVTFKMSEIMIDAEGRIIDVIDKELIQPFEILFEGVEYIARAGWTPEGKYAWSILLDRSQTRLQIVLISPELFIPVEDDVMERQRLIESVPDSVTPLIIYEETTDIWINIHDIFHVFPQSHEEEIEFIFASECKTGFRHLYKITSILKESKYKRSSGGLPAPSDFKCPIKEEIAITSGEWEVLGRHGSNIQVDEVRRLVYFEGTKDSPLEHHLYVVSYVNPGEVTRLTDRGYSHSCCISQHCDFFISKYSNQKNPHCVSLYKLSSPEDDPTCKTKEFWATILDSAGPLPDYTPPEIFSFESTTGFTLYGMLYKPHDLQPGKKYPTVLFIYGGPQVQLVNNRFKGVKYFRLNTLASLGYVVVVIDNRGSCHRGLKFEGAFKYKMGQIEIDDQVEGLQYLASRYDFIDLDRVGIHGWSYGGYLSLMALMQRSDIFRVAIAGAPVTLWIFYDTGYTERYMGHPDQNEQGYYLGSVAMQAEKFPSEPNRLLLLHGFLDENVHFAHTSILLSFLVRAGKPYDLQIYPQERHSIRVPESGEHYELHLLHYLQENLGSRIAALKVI
CTSL: Procathepsin L (CTSL, Homo sapiens, UniProt P07711)
UniProt P07711, sequence (whole entry, looked up): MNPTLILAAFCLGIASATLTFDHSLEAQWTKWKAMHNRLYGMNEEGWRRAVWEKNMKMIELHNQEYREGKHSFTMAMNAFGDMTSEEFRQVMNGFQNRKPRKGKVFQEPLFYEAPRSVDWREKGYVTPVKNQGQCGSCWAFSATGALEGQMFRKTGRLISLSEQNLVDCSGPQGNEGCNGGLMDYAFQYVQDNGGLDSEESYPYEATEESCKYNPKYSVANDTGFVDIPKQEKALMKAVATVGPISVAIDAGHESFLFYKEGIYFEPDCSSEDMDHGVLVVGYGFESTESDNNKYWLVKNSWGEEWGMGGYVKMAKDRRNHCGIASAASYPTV
UniProt Q969S8, sequence (whole entry, looked up): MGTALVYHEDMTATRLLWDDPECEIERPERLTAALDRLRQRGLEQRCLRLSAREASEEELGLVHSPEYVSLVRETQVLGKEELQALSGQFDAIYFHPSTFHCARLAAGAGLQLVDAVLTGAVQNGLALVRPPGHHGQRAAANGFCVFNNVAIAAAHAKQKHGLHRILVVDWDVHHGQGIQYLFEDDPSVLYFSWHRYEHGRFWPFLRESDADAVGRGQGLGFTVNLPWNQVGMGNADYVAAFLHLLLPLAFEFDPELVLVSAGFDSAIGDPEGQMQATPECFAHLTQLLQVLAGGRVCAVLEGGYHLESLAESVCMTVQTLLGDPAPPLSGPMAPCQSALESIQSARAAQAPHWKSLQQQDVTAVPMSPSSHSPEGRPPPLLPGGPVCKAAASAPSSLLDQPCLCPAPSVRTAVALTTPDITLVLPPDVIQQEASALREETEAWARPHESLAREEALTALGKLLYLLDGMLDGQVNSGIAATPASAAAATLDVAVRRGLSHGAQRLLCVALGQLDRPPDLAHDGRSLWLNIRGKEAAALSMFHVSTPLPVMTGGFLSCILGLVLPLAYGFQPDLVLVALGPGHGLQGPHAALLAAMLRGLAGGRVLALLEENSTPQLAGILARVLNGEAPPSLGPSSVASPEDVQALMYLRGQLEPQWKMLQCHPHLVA
UniProt P19784, sequence (whole entry, looked up): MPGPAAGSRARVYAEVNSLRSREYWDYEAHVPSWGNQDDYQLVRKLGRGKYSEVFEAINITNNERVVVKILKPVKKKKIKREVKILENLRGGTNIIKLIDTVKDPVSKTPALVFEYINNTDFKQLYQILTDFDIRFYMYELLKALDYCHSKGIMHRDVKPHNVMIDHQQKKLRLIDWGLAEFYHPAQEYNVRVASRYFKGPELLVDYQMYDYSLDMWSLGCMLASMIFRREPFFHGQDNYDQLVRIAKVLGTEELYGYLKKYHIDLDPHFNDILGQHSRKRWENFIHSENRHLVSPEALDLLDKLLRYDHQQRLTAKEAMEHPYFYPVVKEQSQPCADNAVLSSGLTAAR

target	test	conditions	how to read	selectivity ratio	SMILES
PRSS1	–	–	relative to: Ki trypsin over Ki MASP-2	0.9	CC[C@H](C)[C@H](NC(=O)[C@@H]1CSSC[C@H](NC(=O)[C@H](Cc2ccc(O)cc2)NC(=O)CNC(C)=O)C(=O)N[C@@H](CO)C(=O)N[C@@H](CCCNC(=N)N)C(=O)N[C@@H](CO)C(=O)N[C@@H](Cc2ccc(O)cc2)C(=O)N2CCC[C@H]2C(=O)N2CCC[C@H]2C(=O)N[C@@H](C(C)C)C(=O)N1)C(=O)N1CCC[C@H]1C(=O)N[C@@H](CC(=O)O)C(N)=O
PTGS2	–	–	relative to: COX-1 IC50 over COX-2 IC50	12.2	CCNC(=O)NC(=O)COC(=O)c1cn(-c2ccccc2)nc1-c1ccc(C)cc1C
CSNK2A2 (Homo sapiens, UniProt P19784)	kinase activity, ADP-Glo	–	relative to: CK2α' over CK2α	2 fold	CCn1c(-c2cc(NC(=O)c3cnccn3)n[nH]2)cc2ccccc21
sigma-2 receptor, rat	–	–	relative to: Ki sigma-2 over Ki VAChT	17700	O=C(O)C(=O)O.O=C(c1ccc(NCCF)cc1)C1CCN(C2Cc3ccccc3CC2O)CC1 (single isomer, unassigned; (-))
RNA F, A–A mismatch	binding, ITC	–	relative to: Kd RNA A over Kd RNA F	33	CN(C)CCNC(=O)c1cccc2c(NCCCCc3c(N)nc(N)nc3N)c3ccccc3nc12
HDAC10 (Homo sapiens, UniProt Q969S8)	binding, NanoBRET	–	relative to: HDAC10 over HDAC6 CD2	~5 fold	COc1ccc(C(=O)NO)cc1NC(=O)c1ccc(-c2ccccc2)cc1
ERN2 RNase domain	RNase activity	–	relative to: IRE1α IC50 over IRE1β IC50	60	NC1CCC(Nc2nccc(-c3cccnc3Oc3ccc(NS(=O)(=O)c4ccccc4Cl)cc3F)n2)CC1 (stereo not drawn)
ROC1-CUL4A CTD	binding, microscale thermophoresis	–	relative to: Kd ROC1-CUL1 CTD over Kd ROC1-CUL4A CTD	~20 fold	O=c1c(-c2cnn(-c3ccccc3)c2)c(C(F)(F)F)oc2c(O)c(O)ccc12
ERN2 RNase domain	RNase activity	–	relative to: IRE1α IC50 over IRE1β IC50	1.4 fold	NC1CCC(Nc2nccc(-c3cccnc3Oc3ccc(NS(=O)(=O)c4ccccc4Cl)c4ccccc34)n2)CC1 (stereo not drawn)
PTGS2	–	–	relative to: COX-1 IC50 over COX-2 IC50	11.4	O=C(NCc1ccccc1)/C(=C/c1cn(-c2ccccc2)nc1-c1ccccc1)NC(=O)c1ccc(Cl)cc1Cl
Dipeptidyl peptidase 8	–	–	relative to: Ki DPP9 over Ki target	> 4	CCC1(CC)C(=O)N(c2cccc(CN3CCN(C)CC3)c2)C1=O
Dipeptidyl peptidase 8	inhibitor	with: Gly-Pro-AMC	relative to: IC50 DPP8/9 over DPP4	> 1000	Cn1c(=O)c(=O)n(C)c2cc(S(=O)(=O)NNC(=S)Nc3ccccc3)ccc21
sigma-2 receptor, rat	–	–	relative to: Ki sigma-2 over Ki VAChT	15800	O=C(O)C(=O)O.O=C(c1ccc(=O)n(CCF)c1)C1CCN(C2Cc3ccccc3CC2O)CC1 (single isomer, unassigned; (-))
CREB-binding protein, bromodomain (CREBBP, Homo sapiens, UniProt Q92793)	BROMOscan competition binding	–	relative to: Kd BRD4(1) over Kd CREBBP	> 250 fold	CCOc1ccc(C(C)=O)cc1NC(=O)c1cc(NC(C)=O)cc(NC(C)=O)c1
PTGS2	enzyme activity, inhibitor, enzyme immunoassay	–	relative to: IC50 COX-1 over IC50 COX-2	1.65	Cc1cccc(/N=N/c2ccc(O)c(C3c4c([nH]c(=S)[nH]c4=O)Nc4[nH]c(=S)[nH]c(=O)c43)c2)c1
ERN2 RNase domain	RNase activity	–	relative to: IRE1α IC50 over IRE1β IC50	0.003 fold	NC1CCC(Nc2nccc(-c3cccnc3Oc3cccc4c(NS(=O)(=O)C5CCC5)cccc34)n2)CC1 (stereo not drawn)
PTGS2	enzyme activity, inhibitor, enzyme immunoassay	–	relative to: IC50 COX-1 over IC50 COX-2	3.56	O=c1[nH]c(=S)[nH]c2c1C(c1cc(/N=N/c3cc(Cl)cc(Cl)c3)ccc1O)c1c([nH]c(=S)[nH]c1=O)N2
JAK1	–	physiological ATP	relative to: JAK1 over other kinases	10 fold	Cc1cnc(Nc2cc(C)c(C)c(C)c2)nc1Nc1ccc2oc(=O)[nH]c2c1
PRSS1	–	–	relative to: Ki trypsin over Ki MASP-2	0.6	CC[C@H](C)[C@H](NC(=O)[C@@H]1CSSC[C@H](NC(=O)[C@H](Cc2ccc(O)cc2)NC(=O)CN)C(=O)N[C@@H](CO)C(=O)N[C@@H](CCCNC(=N)N)C(=O)N[C@@H](CO)C(=O)N[C@@H](Cc2ccc(O)cc2)C(=O)N2CCC[C@H]2C(=O)N2CCC[C@H]2C(=O)N[C@@H](C(C)C)C(=O)N1)C(=O)N1CCC[C@H]1C(=O)N[C@@H](CC(=O)O)C(N)=O
CTSL	–	–	relative to: rhodesain over cathepsin L kinact/Ki	2	COC(=O)CN1CCCc2cc3cc(C(=O)NC(Cc4cccc(Cl)c4)C(=O)NCC=CS(=O)(=O)c4ccccc4)c(=O)oc3cc21 (stereo not drawn)
ERN2 RNase domain	RNase activity	–	relative to: IRE1α IC50 over IRE1β IC50	0.12 fold	O=S(=O)(Cc1ccccc1Cl)Nc1ccc(Oc2ncccc2-c2ccnc(N[C@H]3CCCNC3)n2)cc1F
PTGS2	enzyme activity, inhibitor, enzyme immunoassay	–	relative to: IC50 COX-1 over IC50 COX-2	2.73	COc1ccc(/N=N/c2ccc(O)c(C3c4c([nH]c(=S)[nH]c4=O)Nc4[nH]c(=S)[nH]c(=O)c43)c2)cc1
ERN2 RNase domain	RNase activity	–	relative to: IRE1α IC50 over IRE1β IC50	< 0.0005 fold	NC1CCC(Nc2nccc(-c3cccnc3Oc3ccc(NS(=O)(=O)C4CCC4)c4ccccc34)n2)CC1 (stereo not drawn)
CTSL	–	–	relative to: rhodesain over cathepsin L kinact/Ki	2.7	Cc1ccc(C[C@H](NC(=O)CN2CCCc3cc4cc(C(=O)NCCNC(=O)CCCC[C@@H]5SC[C@@H]6NC(=O)N[C@@H]65)c(=O)oc4cc32)C(=O)NC/C=C/S(=O)(=O)c2ccccc2)cc1

For quick reference, copied from above:
target	test	conditions	how to read	selectivity ratio	SMILES
Dipeptidyl peptidase 8	–	–	relative to: Ki DPP9 over Ki target	> 4	CCC1(CC)C(=O)N(c2cccc(CN3CCN(C)CC3)c2)C1=O
